Results collected from several papers.
Every numbered part comes from another study and shows a few of its results, in no order. Values joined by “and” are separate records of one study, mostly repeats; a detail may differ.
Chain of UniProt O15197 (whole entry, looked up): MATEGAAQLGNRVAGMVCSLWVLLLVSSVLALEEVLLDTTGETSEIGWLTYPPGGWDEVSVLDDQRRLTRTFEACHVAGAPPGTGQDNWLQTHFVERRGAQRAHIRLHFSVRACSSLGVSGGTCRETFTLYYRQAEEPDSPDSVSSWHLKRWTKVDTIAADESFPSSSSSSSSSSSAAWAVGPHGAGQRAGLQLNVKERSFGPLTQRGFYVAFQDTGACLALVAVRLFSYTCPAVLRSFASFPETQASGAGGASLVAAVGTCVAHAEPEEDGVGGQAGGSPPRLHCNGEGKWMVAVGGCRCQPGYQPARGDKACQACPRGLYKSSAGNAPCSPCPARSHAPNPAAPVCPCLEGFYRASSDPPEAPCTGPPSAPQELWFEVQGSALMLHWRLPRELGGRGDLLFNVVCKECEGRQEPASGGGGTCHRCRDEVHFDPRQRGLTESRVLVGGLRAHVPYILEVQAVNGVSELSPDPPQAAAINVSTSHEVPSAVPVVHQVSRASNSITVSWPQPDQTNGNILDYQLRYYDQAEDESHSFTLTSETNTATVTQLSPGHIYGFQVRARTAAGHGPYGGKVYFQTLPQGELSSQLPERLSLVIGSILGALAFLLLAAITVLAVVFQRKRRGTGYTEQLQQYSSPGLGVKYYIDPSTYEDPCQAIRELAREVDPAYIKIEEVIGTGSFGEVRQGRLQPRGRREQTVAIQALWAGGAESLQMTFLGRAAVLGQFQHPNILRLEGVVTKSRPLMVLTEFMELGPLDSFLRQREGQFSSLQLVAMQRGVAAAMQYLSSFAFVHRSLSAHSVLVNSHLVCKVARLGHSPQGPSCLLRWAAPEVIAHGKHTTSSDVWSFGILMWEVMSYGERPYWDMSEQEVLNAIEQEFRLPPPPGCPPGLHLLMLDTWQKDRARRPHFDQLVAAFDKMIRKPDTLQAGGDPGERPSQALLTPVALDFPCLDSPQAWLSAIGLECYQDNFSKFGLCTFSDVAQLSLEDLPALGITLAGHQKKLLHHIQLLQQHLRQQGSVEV
Chain of UniProt Q2M2I8 (whole entry, looked up): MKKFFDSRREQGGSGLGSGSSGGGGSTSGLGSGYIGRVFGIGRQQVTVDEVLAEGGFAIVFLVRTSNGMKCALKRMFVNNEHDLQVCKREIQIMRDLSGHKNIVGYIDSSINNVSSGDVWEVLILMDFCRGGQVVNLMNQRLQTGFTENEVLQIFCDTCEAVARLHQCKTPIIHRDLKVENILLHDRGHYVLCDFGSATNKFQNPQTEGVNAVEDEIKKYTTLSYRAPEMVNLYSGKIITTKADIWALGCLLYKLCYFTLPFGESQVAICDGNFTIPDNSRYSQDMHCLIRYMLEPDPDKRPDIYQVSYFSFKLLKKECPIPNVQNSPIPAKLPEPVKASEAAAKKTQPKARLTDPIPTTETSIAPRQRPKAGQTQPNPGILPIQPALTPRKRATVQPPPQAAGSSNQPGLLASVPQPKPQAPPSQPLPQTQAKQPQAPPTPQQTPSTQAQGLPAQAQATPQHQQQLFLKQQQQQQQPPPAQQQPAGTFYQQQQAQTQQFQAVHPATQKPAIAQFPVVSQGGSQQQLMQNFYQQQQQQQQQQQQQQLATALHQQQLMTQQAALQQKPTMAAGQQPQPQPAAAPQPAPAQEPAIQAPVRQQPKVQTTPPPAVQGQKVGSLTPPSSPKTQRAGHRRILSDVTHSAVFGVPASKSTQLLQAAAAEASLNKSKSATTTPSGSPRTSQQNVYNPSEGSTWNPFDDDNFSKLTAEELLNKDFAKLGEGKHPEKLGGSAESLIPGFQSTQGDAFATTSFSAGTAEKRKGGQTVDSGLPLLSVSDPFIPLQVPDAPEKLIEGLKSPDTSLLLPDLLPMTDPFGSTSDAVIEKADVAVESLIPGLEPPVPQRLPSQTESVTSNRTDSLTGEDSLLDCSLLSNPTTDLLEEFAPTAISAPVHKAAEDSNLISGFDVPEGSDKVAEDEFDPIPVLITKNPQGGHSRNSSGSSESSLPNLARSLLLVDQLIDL
Chain of UniProt Q99558 (whole entry, looked up): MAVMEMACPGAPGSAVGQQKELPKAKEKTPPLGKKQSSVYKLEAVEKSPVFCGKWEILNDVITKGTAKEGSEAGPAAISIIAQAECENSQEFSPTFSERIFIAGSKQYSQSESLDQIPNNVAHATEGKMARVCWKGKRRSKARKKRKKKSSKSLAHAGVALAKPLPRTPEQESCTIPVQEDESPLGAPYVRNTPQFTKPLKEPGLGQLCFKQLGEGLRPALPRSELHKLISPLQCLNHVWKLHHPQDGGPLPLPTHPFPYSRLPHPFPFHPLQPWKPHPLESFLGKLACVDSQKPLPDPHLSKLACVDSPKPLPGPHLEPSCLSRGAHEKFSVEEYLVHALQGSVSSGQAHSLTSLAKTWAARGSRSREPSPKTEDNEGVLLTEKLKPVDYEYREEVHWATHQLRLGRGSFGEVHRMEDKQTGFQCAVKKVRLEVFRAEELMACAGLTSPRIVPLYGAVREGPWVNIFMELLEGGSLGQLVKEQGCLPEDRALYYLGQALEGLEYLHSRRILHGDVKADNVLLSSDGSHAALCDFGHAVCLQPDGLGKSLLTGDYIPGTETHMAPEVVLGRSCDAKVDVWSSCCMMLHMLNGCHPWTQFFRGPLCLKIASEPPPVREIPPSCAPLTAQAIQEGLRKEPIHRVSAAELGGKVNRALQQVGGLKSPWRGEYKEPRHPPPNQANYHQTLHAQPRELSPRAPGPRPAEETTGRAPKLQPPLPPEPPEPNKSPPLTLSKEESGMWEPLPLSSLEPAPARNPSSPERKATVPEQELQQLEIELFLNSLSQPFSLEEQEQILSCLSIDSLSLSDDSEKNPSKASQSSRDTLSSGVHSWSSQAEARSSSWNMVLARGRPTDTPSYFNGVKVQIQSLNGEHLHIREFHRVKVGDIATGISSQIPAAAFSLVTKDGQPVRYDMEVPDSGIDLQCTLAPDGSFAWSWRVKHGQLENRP
Chain of UniProt Q16659 (whole entry, looked up): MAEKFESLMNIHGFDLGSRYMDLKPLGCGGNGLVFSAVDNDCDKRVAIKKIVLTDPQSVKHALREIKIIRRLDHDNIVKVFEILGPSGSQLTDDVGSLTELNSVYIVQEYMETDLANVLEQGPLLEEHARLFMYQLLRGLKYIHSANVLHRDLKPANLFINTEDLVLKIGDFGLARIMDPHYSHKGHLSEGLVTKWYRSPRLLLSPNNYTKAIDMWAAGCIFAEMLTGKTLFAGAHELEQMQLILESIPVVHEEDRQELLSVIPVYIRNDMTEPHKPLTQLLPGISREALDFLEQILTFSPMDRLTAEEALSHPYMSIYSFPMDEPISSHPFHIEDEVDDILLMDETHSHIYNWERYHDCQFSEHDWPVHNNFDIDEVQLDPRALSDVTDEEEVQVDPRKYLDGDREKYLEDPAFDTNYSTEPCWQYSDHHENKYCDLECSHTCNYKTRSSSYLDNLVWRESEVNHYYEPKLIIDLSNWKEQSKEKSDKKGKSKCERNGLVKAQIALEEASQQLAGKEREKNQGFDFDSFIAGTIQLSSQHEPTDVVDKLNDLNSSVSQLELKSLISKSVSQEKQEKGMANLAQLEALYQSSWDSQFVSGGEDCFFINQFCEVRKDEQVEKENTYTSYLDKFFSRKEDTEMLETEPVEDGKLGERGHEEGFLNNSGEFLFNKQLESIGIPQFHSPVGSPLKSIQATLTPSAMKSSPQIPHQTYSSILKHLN
Chain of UniProt Q14012 (whole entry, looked up): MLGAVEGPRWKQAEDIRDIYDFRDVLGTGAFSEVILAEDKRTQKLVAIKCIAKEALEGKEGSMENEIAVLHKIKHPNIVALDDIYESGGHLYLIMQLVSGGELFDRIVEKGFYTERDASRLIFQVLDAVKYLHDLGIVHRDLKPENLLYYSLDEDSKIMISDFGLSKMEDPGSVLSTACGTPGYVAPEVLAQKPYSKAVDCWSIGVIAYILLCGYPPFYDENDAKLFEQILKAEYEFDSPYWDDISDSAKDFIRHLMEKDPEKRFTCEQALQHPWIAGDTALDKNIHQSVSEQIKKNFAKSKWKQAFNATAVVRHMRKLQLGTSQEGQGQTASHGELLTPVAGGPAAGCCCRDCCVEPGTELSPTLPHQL

Set 1 — cell line: mouse MPNST tumor cells; method: high-content immunofluorescence imaging; measured: nuclear SOX9; concentration: 10 µM; time: 12 h; notes: mean of 2 replicates; baseline: DMSO control; direction: higher = more nuclear SOX9; measurement: nuclear SOX9 intensity
NC[C@H]1O[C@H](O[C@H]2[C@H](O)[C@@H](O[C@H]3O[C@H](CO)[C@@H](O)[C@H](N)[C@H]3O)[C@H](N)C[C@@H]2N)[C@H](N)C[C@@H]1O: 107 % of DMSO
COc1ccc(-n2cnnn2)cc1CN[C@H]1CCCN[C@H]1c1ccccc1: 107 % of DMSO
O=C1CCc2cc(OCCCCc3nnnn3C3CCCCC3)ccc2N1: 99.7 % of DMSO and 104 % of DMSO
Cn1cc(-c2ccc3nnc(Sc4ccc5ncccc5c4)n3n2)cn1: 40.2 % of DMSO
CCn1c(-c2nonc2N)nc2cncc(CNC3CCNCC3)c21: 98.6 % of DMSO
O=C(NCCN1CCC(n2c(=O)[nH]c3ccccc32)CC1)c1cc2cc(F)ccc2[nH]1: 210 % of DMSO
Cc1cccc(Nc2ccncc2S(=O)(=O)NC(=O)NC(C)C)c1: 106 % of DMSO
Cc1oc(-c2ccccc2)nc1CCOc1ccc(CC2SC(=O)NC2=O)c2sccc12 (centres unmarked): 117 % of DMSO
O=C(O)c1ccc2c(c1)C(=O)N(c1cccc(Oc3ccc([N+](=O)[O-])cc3)c1)C2=O: 92.1 % of DMSO
CC(=O)OCC(=O)[C@@]1(O)CC[C@H]2[C@@H]3CCC4=CC(=O)C=C[C@]4(C)[C@@]3(F)[C@@H](O)C[C@@]21C: 75.3 % of DMSO
CC(C(=O)O)c1ccc2c(c1)Cc1cccnc1O2 (centres unmarked): 95.2 % of DMSO

Set 2 — species: human; sample: microsomes or S9; concentration: 2 µM; time: 0.5 h; measurement: remaining compound
CC(C)(C)c1cc(-c2nc3c4c(ncn3n2)CCC4)n[nH]1: 66.8%
O=C1CCC(=O)N1OCCCOc1ccc2c(c1)CCC2: 42.7%
CCOC(=O)c1c(C)c(C(=O)CN(C)S(=O)(=O)c2ccccc2)c(C)n1CC: 11.7%
O=C(O)C1CC[C@@H](c2ccccc2)N1C(=O)C1CCCS1(=O)=O (some centres unmarked): > 100%
CCN1C(=O)CCC2(C(=O)NCCN(C)C3CCCCC3)CCCC=C12 (centres unmarked): 67.5%
N#Cc1cccc(-n2c3ccccc3c3ccncc32)c1: 6.38%
NS(=O)(=O)c1ccc(Nc2ccc3cc(S(=O)(=O)N4CCCCC4)ccc3n2)cc1: 1.87%
O=C1NN=C(c2ccc(OCCN3CCOCC3)cc2)CC1c1ccc(Cl)cc1 (centres unmarked): 44.5%
c1nc2nc[nH]c(N3CCN(Cc4ccc5c(c4)OCO5)CC3)c-2n1: 20.6%
c1ccc(-c2ccc3ccnc(N4CCCCC4)c3c2)cc1: 12.4%
O=C(C1CCC1)N(C1CCCCC1)C1CCCCC1: 3.27%

Set 3 — concentration: 1 µM; measurement: remaining binding
SMILES: CNCc1ccccc1-c1csc([C@H](C)Nc2nc(C)nc3cc(OC)c(OC)cc23)c1
Leucine-rich repeat serine/threonine-protein kinase 2 (LRRK2, Homo sapiens, UniProt Q5S007); cell-free assay, competition with immobilised ligand: 100%
Citron Rho-interacting kinase (CIT, Homo sapiens, UniProt O14578); cell-free assay, competition with immobilised ligand: 100%
Serine/threonine-protein kinase TNNI3K (TNNI3K, Homo sapiens, UniProt Q59H18); cell-free assay, competition with immobilised ligand: 100%
Serine/threonine-protein kinase 4 (STK4, Homo sapiens, UniProt Q13043); cell-free assay, competition with immobilised ligand: 100%
Receptor-type tyrosine-protein kinase FLT3 (FLT3, Homo sapiens, UniProt P36888, F691L/ITD); cell-free assay, competition with immobilised ligand: 79%
AP2-associated protein kinase 1 (AAK1, Homo sapiens, UniProt Q2M2I8); binding: 94%
Mitogen-activated protein kinase kinase kinase 14 (MAP3K14, Homo sapiens, UniProt Q99558); cell-free assay, competition with immobilised ligand: 100%
Serine/threonine-protein kinase 3 (STK3, Homo sapiens, UniProt Q13188); cell-free assay, competition with immobilised ligand: 89%
Calcium/calmodulin-dependent protein kinase type 1 (CAMK1, Homo sapiens, UniProt Q14012); cell-free assay, competition with immobilised ligand: 100%
Mitogen-activated protein kinase 6 (MAPK6, Homo sapiens, UniProt Q16659); cell-free assay, competition with immobilised ligand: 100%
Ephrin type-B receptor 6 (EPHB6, Homo sapiens, UniProt O15197); cell-free assay, competition with immobilised ligand: 87%
Phosphatidylinositol 4,5-bisphosphate 3-kinase catalytic subunit alpha isoform (PIK3CA, Homo sapiens, UniProt P42336, C420R); cell-free assay, competition with immobilised ligand: 97%
Tyrosine-protein kinase JAK2, JH1 (JAK2, Homo sapiens, UniProt O60674); cell-free assay, competition with immobilised ligand: 63%
Cyclin-G-associated kinase (GAK, Homo sapiens, UniProt O14976); cell-free assay, competition with immobilised ligand: 90%
Proto-oncogene tyrosine-protein kinase Src (SRC, Homo sapiens, UniProt P12931); cell-free assay, competition with immobilised ligand: 100%

Set 4 — effect on: enzyme activity; mode: inhibitor; concentration: 0.5 µM; baseline: control; measurement: remaining activity
Target: Ephrin type-B receptor 3 (EPHB3, Homo sapiens, UniProt P54753)
Chain of UniProt P54753 (whole entry, looked up): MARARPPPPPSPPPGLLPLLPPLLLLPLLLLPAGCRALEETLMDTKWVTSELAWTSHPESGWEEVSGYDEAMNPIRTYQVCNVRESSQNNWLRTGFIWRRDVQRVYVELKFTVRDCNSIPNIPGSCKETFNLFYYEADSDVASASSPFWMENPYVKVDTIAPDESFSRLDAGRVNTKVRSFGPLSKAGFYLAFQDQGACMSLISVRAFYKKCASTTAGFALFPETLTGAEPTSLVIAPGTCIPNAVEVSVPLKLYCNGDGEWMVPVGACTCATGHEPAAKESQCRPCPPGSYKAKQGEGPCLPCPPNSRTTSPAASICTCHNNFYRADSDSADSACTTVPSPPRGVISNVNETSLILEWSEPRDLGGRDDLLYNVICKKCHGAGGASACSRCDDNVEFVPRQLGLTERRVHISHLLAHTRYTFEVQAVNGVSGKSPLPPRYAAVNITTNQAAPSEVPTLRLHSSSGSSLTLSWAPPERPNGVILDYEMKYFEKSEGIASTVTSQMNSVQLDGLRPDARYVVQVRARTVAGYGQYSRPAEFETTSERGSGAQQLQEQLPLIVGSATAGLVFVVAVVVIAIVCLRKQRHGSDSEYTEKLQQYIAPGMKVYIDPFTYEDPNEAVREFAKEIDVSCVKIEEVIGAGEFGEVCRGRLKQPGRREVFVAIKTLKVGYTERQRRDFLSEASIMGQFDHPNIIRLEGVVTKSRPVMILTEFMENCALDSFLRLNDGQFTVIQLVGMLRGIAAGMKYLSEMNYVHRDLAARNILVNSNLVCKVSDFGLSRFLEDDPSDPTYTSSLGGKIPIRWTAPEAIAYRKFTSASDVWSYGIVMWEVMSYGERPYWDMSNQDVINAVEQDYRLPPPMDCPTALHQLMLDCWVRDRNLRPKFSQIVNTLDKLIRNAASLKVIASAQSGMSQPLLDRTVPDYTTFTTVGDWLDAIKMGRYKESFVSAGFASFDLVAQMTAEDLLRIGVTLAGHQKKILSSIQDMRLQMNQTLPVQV
O=C1NC(=O)c2c1c1c3ccccc3[nH]c1c1[nH]c3cc(Br)ccc3c21: 91.9%
c1ccc(-c2n[nH]c3c2oc2ccccc23)cc1: 84.7%
O=c1cc(N2CCOCC2)oc2c(-c3ccccc3)cccc12: 94.6%
CCCCc1c(-c2ccc(OC)cc2)[nH]c2nccnc12: 99.8%
CCCNC(=O)Nc1ccc(Oc2ncnc3cc(OC)c(OC)cc23)cc1Cl: 93.7%
c1ccc2c(-c3ccncc3)c[nH]c2c1: 100%
O=C1Nc2ccc(Br)cc2/C1=C/c1cc2c([nH]1)CCCC2: 99.7%
O=C1Cc2c([nH]c3ccc(Br)cc23)-c2ccccc2N1: 92.3%
Cc1ccc(S(=O)(=O)/C=C/C#N)cc1: 104%
O=C1Nc2ccccc2/C1=C\c1c(Cl)[nH]c2ccccc12: 91.3%

Repeated from above (set 2):
N#Cc1cccc(-n2c3ccccc3c3ccncc32)c1: 6.38%
O=C1CCC(=O)N1OCCCOc1ccc2c(c1)CCC2: 42.7%
CCOC(=O)c1c(C)c(C(=O)CN(C)S(=O)(=O)c2ccccc2)c(C)n1CC: 11.7%
CCN1C(=O)CCC2(C(=O)NCCN(C)C3CCCCC3)CCCC=C12 (centres unmarked): 67.5%
c1ccc(-c2ccc3ccnc(N4CCCCC4)c3c2)cc1: 12.4%
c1nc2nc[nH]c(N3CCN(Cc4ccc5c(c4)OCO5)CC3)c-2n1: 20.6%
